{"data": "Assay results collected from several papers", "note": "Parts stem from different laboratories: compare values within a part only. Substitutions count along the parent as printed."}
{"data": "Series 1", "target": "RING finger protein unkempt homolog, zinc fingers 1-6, GST-SBP tag (UNK, Homo sapiens, UniProt Q9C0B0, residues 30-357)", "method": "RNA Bind-n-Seq", "molecule type": "RNA", "matrix": "in vitro", "concentration": "not given", "notes": "RNA with constant flanks, human and mouse sites, ends assumed", "reference": "input RNA pool", "reading": "higher = stronger binding", "shared flanks, not repeated": "GGGAGUUCUACAGUCCGACGAUC … CAACAGAGGAUUGAGCAUCA", "sequence of UniProt Q9C0B0 (30-357, looked up)": "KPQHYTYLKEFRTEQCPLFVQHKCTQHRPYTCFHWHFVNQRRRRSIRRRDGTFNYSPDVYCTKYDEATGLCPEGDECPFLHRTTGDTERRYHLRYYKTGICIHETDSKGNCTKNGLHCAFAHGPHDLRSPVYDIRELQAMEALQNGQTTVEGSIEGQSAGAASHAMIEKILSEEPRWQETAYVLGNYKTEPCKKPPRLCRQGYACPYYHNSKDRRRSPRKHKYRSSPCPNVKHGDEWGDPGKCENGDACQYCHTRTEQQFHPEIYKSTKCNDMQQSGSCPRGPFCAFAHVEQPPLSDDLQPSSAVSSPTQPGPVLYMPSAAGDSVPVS"}
{"Sequence": "CCCCUCCCCUCUAUCCAGGGGCAGGUCCCAGGGGCUUUCUACUUCCAGUUGCCAAUUGUGUUGCUUUCUAUUUGUUGAAAAUGUACGUUUAAAUUUAAAAUCACUUUUUUAAACAGAAGA", "bound/input enrichment [ratio]": 0.175}
{"Sequence": "GCCAGCAUUCUGACCAACACAAUGGAAGAACUUGAAGAAUCUAGACAGAAAUGUCCGCCAUGCUGGUAUAGAUUUGCCAAUGUGUUCUUGAUCUGGGACUGCUGUGAUGCAUGGUUAAAA", "bound/input enrichment [ratio]": 0.332}
{"Sequence": "GAUAAGAGCAUGCAAGACCGCUUGAGACUGGGCCACUUUACUACUGUCCGACACGGAGCCUCAUUUACUGAACAGUGGACAGAUGGUUAUGCUUUUCAGAAUCUUAUCAAGCAACAGGAA", "bound/input enrichment [ratio]": 0.146}
{"Sequence": "AUGUGACAUGUUUGUACAUUUUAUCUAUAUCUUCAUGGCAAAAUAUUUUGUUUAAAACAUGAUUAUCUUAAUUCCUGUGAAGUGGCACUCUACACUCUAAUUAAACUUUUAUCUGAUGUA", "bound/input enrichment [ratio]": 0.676}
{"Sequence": "UCCCCCUUCCCAGCUUCCCAGGCAUUGCCCAGCUACCCCCACUCUUUCCCUCCCCCAACAAGCCUCUCUGUCUCCAAUCAGCCCCCCAAGUAUACUCAGCCUUCUCUCCCAUCCCAGGCU", "bound/input enrichment [ratio]": 1.32}
{"Sequence": "GUUCGACUUUGGGAUCAUGCUACUAUGACAGAAGUGAAAUCUCUAAAUUUUAAUAUGUCUGUUAGUAGUAUGGAAUAUAUUCCUGAGGGAGAGAUUUUGGUUAUAACUUAUGGACGAUCU", "bound/input enrichment [ratio]": 0.39}
{"Sequence": "UCUAGGACAACAUUUGAUUGAGGAUGAACUAUUAUUACUAGAAAGCAAUUUGGUGACAAAAAAAAUCCUCACACGGGCGUCUCACAAUGGUUGAUUUUCCAGGGUCCUGGGUAUAUGAGA", "bound/input enrichment [ratio]": 13.1}
{"Sequence": "GGCUUCAGCAGUGUGCUCCAGUUCCUAGGACUCUACAAGAAAUCUGGAAAACUUGUAUUCUUAGGAUUGGACAAUGCGGGCAAAACCACUCUUCUUCACAUGCUGAAAGAUGACAGACUA", "bound/input enrichment [ratio]": 0.262}
{"data": "Series 2", "target": "CCNF, cyclin fold, Cln2 fusion (human)", "method": "yeast growth competition, sequencing", "matrix": "yeast", "notes": "strong parent motif", "reference": "not given", "reading": "higher = stronger binding", "starting sequence": "SLBP docking peptide (human); ARYKRKLLINDFG; partner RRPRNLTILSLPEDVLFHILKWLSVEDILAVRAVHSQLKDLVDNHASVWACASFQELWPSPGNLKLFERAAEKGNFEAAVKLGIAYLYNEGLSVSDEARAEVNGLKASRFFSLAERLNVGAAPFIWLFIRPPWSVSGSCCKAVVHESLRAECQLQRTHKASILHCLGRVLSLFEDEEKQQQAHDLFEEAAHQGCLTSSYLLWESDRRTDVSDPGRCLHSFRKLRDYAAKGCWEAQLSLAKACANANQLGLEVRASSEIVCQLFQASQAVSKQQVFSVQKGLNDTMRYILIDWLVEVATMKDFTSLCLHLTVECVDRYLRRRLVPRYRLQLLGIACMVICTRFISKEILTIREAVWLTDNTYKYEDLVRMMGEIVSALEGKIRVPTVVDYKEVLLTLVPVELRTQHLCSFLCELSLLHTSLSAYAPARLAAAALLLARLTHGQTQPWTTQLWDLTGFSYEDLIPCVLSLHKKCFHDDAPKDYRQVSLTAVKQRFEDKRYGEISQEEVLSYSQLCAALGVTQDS"}
{"Variant": "K6M", "normalised enrichment score": 1.55}
{"Variant": "F12T", "normalised enrichment score": 0.1}
{"Variant": "A1R", "normalised enrichment score": 1.64}
{"Variant": "K6L", "normalised enrichment score": 2.08}
{"Variant": "D11F", "normalised enrichment score": 2.34}
{"Variant": "A1Y", "normalised enrichment score": 0.84}
{"Variant": "K4R", "normalised enrichment score": 1.28}
{"Variant": "F12D", "normalised enrichment score": 1.14}
{"Variant": "N10D", "normalised enrichment score": 2.13}
{"Variant": "L8S", "normalised enrichment score": 0.963}
{"Variant": "I9S", "normalised enrichment score": 1.85}
{"Variant": "Y3E", "normalised enrichment score": 0.881}
{"Variant": "L7R", "normalised enrichment score": 0.903}
{"Variant": "R5S", "normalised enrichment score": 1.93}
{"Variant": "R5K L8F", "normalised enrichment score": 0.871}
{"Variant": "K4E", "normalised enrichment score": 0.5}
{"Variant": "G13D", "normalised enrichment score": 0.973}
{"Variant": "R2N", "normalised enrichment score": 2.73}
{"data": "Series 3", "target": "UBE2E2 UBC core domain (UniProt Q96LR5)", "method": "yeast two-hybrid", "matrix": "yeast", "notes": "mostly zero background", "reference": "not given", "reading": "higher = stronger interaction", "B1": "MEX3B RING domain (UniProt Q6ZN04); chain SGLRRKGSRDCSVCFESEVIAALVPCGHNLFCMECANRICEKSEPECPVCHTAVTQAIRIF", "B2": "RNF166 RING domain (UniProt Q96A37); chain GDSGLEAQYTCPICLEVYHRPVAIGSCGHTFCGECLQPCLQVPSPLCPLCRLPFDPKKVDK", "B3": "MYCBP2 RING domain (UniProt O75592); chain TSLKQDADDMCMICFTEALSAAPAIQLDCSHIFHLQCCRRVLENRWLGPRITFGFISCPICKNKINHIVLKD", "B4": "MKRN2 RING domain (UniProt Q9H000); chain FAFQASQDKVCSICMEVILEKASASERRFGILSNCNHTYCLSCIRQWRCAKQFENPIIKSCPECRVISEFVIPSV", "sequence of UniProt Q96LR5 (whole entry, looked up)": "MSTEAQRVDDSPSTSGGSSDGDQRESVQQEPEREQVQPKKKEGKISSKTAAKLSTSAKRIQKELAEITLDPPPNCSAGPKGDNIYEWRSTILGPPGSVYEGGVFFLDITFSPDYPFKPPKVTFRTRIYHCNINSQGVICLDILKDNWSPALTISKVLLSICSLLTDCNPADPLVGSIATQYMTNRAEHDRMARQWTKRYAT"}
{"Sequence": "YCEMGSTFQLCKICAENDKDVKIEPCGHLMCTSCLTAWQESDGQGCPFCRCEIKGTEPII (CBLB RING domain (UniProt Q13191))", "lacZ reporter activity": 0}
{"Sequence": "B1 (MEX3B RING domain)", "lacZ reporter activity": 0}
{"Sequence": "LDAASGHPLVCPLCHGQYERPCLLDCFHDFCTGCLRGRATDGRLSCPLCQHQTLVKGPSG (Rnf207 RING domain (UniProt Q3V3A7))", "lacZ reporter activity": 0}
{"Sequence": "B2 (RNF166 RING domain)", "lacZ reporter activity": 0}
{"Sequence": "B3 (MYCBP2 RING domain)", "lacZ reporter activity": 0}
{"Sequence": "B4 (MKRN2 RING domain)", "lacZ reporter activity": 0}
{"data": "Series 4", "target": "ATF2, bZIP domain (human)", "method": "DHFR protein complementation", "matrix": "yeast", "notes": "single substitutions, most at no-binding floor", "reference": "wild-type JUN-FOS pair", "reading": "higher = stronger binding", "starting sequence": "JUN, bZIP domain (human); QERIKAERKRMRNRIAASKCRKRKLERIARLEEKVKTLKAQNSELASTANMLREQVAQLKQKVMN; partner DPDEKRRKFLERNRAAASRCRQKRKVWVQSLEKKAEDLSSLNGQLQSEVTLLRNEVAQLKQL"}
{"Variant": "A57N", "binding fitness": "-1.45 natural log"}
{"Variant": "L45R", "binding fitness": "-1.45 natural log"}
{"Variant": "E54D", "binding fitness": "-1.35 natural log"}
{"Variant": "I28S", "binding fitness": "-1.49 natural log"}
{"Variant": "L45G", "binding fitness": "-1.51 natural log"}
{"Variant": "R30T", "binding fitness": "-1.27 natural log"}
{"Variant": "A40D", "binding fitness": "-1.41 natural log"}
{"Variant": "K34Y", "binding fitness": "-1.21 natural log"}
{"Variant": "K39M", "binding fitness": "-1.32 natural log"}
{"Variant": "K36N", "binding fitness": "-1.49 natural log"}
{"Variant": "L38F", "binding fitness": "-1.38 natural log"}
{"Variant": "K34L", "binding fitness": "-1.29 natural log"}
{"Variant": "N42D", "binding fitness": "-1.28 natural log"}
{"Variant": "I28C", "binding fitness": "-1.26 natural log"}
{"data": "Series 5", "target": "ABI1, truncated, D143A, DHFR fusion (Arabidopsis thaliana)", "method": "DHFR PCA, deep sequencing", "matrix": "yeast", "notes": "methotrexate growth selection, single substitutions", "added": "(+)-ABA 0 µM", "reference": "wild-type fitted maximum", "reading": "higher = stronger binding", "starting sequence": "PYL1, truncated, DHFR fusion (Arabidopsis thaliana); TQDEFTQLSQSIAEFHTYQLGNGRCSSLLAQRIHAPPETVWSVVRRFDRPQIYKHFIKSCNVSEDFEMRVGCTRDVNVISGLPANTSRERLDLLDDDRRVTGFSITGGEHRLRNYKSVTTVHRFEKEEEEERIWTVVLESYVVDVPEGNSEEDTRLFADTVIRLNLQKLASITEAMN"}
{"Variant": "S27F", "relative binding score [%]": -0.74}
{"Variant": "Q19R", "relative binding score [%]": 24.2}
{"Variant": "E139K", "relative binding score [%]": 13.4}
{"Variant": "N85T", "relative binding score [%]": 59.7}
{"Variant": "F103D", "relative binding score [%]": -1.23}
{"Variant": "S150N", "relative binding score [%]": 18}
{"Variant": "S140G", "relative binding score [%]": 5.04}
{"Variant": "V44M", "relative binding score [%]": 3.56}
{"Variant": "L156R", "relative binding score [%]": 2.56}
{"Variant": "S104P", "relative binding score [%]": 2.31}
{"Variant": "T135R", "relative binding score [%]": -8.86}
{"Variant": "D3T", "relative binding score [%]": 11.7}
{"Variant": "T73E", "relative binding score [%]": 23.6}
{"Variant": "Y141T", "relative binding score [%]": -3.91}
{"Variant": "T154W", "relative binding score [%]": -8.7}
{"Variant": "R123A", "relative binding score [%]": 50.3}
{"note": "Excerpt of the above (series 1):"}
{"Sequence": "GCCAGCAUUCUGACCAACACAAUGGAAGAACUUGAAGAAUCUAGACAGAAAUGUCCGCCAUGCUGGUAUAGAUUUGCCAAUGUGUUCUUGAUCUGGGACUGCUGUGAUGCAUGGUUAAAA", "bound/input enrichment [ratio]": 0.332}
{"Sequence": "GAUAAGAGCAUGCAAGACCGCUUGAGACUGGGCCACUUUACUACUGUCCGACACGGAGCCUCAUUUACUGAACAGUGGACAGAUGGUUAUGCUUUUCAGAAUCUUAUCAAGCAACAGGAA", "bound/input enrichment [ratio]": 0.146}
{"Sequence": "AUGUGACAUGUUUGUACAUUUUAUCUAUAUCUUCAUGGCAAAAUAUUUUGUUUAAAACAUGAUUAUCUUAAUUCCUGUGAAGUGGCACUCUACACUCUAAUUAAACUUUUAUCUGAUGUA", "bound/input enrichment [ratio]": 0.676}
{"Sequence": "UCCCCCUUCCCAGCUUCCCAGGCAUUGCCCAGCUACCCCCACUCUUUCCCUCCCCCAACAAGCCUCUCUGUCUCCAAUCAGCCCCCCAAGUAUACUCAGCCUUCUCUCCCAUCCCAGGCU", "bound/input enrichment [ratio]": 1.32}
{"Sequence": "GUUCGACUUUGGGAUCAUGCUACUAUGACAGAAGUGAAAUCUCUAAAUUUUAAUAUGUCUGUUAGUAGUAUGGAAUAUAUUCCUGAGGGAGAGAUUUUGGUUAUAACUUAUGGACGAUCU", "bound/input enrichment [ratio]": 0.39}
{"Sequence": "UCUAGGACAACAUUUGAUUGAGGAUGAACUAUUAUUACUAGAAAGCAAUUUGGUGACAAAAAAAAUCCUCACACGGGCGUCUCACAAUGGUUGAUUUUCCAGGGUCCUGGGUAUAUGAGA", "bound/input enrichment [ratio]": 13.1}
